Measurements pooled from the literature.
Numbered parts are unrelated; each lists some results of a single study. Positions count from the first letter of the parent shown.

Set 1
Target: Histone acetyltransferase KAT6A, winged helix 2, GST fusion (KAT6A, Homo sapiens, UniProt Q92794, residues 85-181)
Method: protein binding microarray
Form: double-stranded DNA, one strand shown
Medium: in vitro
Concentration: not given
Setting: 8-mer, flanks averaged, mean of 2 arrays, mostly near background
Baseline: not given
Reading: higher = stronger binding
Endpoint: E-score
Construct (chain): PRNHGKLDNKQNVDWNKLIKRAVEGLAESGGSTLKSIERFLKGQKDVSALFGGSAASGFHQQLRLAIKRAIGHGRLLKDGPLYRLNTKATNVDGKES
Oligonucleotide = CTGACCAA; value = 0.188
Oligonucleotide = GGCGTGTA; value = -0.0176
Oligonucleotide = GACAGTTA; value = -0.00115
Oligonucleotide = TCGTCCCA; value = 0.0876
Oligonucleotide = ATCTTAGC; value = -0.065
Oligonucleotide = CACTAAGC; value = -0.0646
Oligonucleotide = GCCGCTGA; value = 0.18
Oligonucleotide = ACTTATGG; value = -0.148
Oligonucleotide = ACGAGTAG; value = -0.0635
Oligonucleotide = GCCGGGTA; value = 0.163
Oligonucleotide = AACAGTAC; value = -0.0676
Oligonucleotide = AAGGATTA; value = -0.0231
Oligonucleotide = AGAGGTGG; value = -0.0693
Oligonucleotide = CATGGGAA; value = 0.038

Set 2
Substance: PhoQ, residues 284 288 289 292 302 303 SLANIV
Method: Sort-seq
Item: YFP reporter
Medium: E. coli
Setting: PhoQ-PhoP variant library
Added: 10 µM Mg2+
Baseline: high Mg2+ state
Reading: higher = stronger signaling
Endpoint: fold induction
target = PhoP, residues 12 14 15 18 19 GMGLL (Escherichia coli, UniProt P23836); value = 3.05
target = PhoP, residues 12 14 15 18 19 QQAYL (Escherichia coli, UniProt P23836); value = 16.2
target = PhoP, residues 12 14 15 18 19 LFHKL (Escherichia coli, UniProt P23836); value = 2.64

Set 3
Target: CCNE2, cyclin fold, Cln2 fusion (human)
Method: yeast growth competition, sequencing
Medium: yeast
Setting: strong parent motif
Baseline: not given
Reading: higher = stronger binding
Endpoint: normalised enrichment score
Starting sequence: CDKN1B docking peptide (human); PSACRNLFGPVDH; partner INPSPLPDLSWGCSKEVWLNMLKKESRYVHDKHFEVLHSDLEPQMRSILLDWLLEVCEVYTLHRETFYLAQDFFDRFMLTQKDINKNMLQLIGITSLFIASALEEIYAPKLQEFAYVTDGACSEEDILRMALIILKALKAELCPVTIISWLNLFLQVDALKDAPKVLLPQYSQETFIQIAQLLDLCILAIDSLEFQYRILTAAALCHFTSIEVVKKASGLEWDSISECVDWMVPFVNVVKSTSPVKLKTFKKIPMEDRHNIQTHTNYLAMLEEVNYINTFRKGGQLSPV
Variant = N6R; value = 2.67
Variant = N6D; value = 0.429
Variant = R5Y; value = 0.264
Variant = G9K; value = 1.98
Variant = P10M; value = 0.53
Variant = F8W; value = 0.859
Variant = D12R; value = 1.53
Variant = P10R; value = 1.59
Variant = F8Y; value = -0.285
Variant = P10G; value = 1.49
Variant = S2G; value = 0.898
Variant = F8V; value = -0.324
Variant = P1E; value = 1.4

Set 4
Target: Interferon regulatory factor 5, full length, phosphomimetic (IRF5, Homo sapiens, UniProt Q13568-2, residues 1-514, K96S/S451D/S453D/S456D/S462D)
Method: protein-binding microarray
Form: double-stranded DNA, one strand shown
Medium: in vitro
Concentration: 250 nM
Setting: 60-bp whole probe
Added: salmon DNA 0.4 mg/ml
Baseline: random background probes
Reading: higher = stronger binding
Endpoint: log fluorescence
Shared flanks, not repeated: GCCTAGCAC … GTCTTGATTCGCTTGACGCTGCTG
Oligonucleotide = TCATATCTGGGTTCCCCACTGTGCTAG; value = 0.363 z-score
Oligonucleotide = GATGGTATCGGGTTTCGGGACGTGCTA; value = 5.39 z-score
Oligonucleotide = GACGAACTGAGTATCCAGACGTGCTAG; value = -0.403 z-score
Oligonucleotide = TCACCTCTCTCTTTCCAACTGTGCTAG; value = 0.425 z-score
Oligonucleotide = TTAGGACAGGGGTTTCGGTTAGTGCTA; value = 7.13 z-score
Oligonucleotide = GTCGAACTGGGGTATCGAGACGTGCTA; value = 0.42 z-score
Oligonucleotide = TTAGAACTGAGGCTGGATTAGTGCTAG; value = -0.398 z-score
Oligonucleotide = GACAATATCAGTATCGAGACGTGCTAG; value = 3.64 z-score
Oligonucleotide = TTAGAATTGGGGTTTCGATTAGTGCTA; value = 5.86 z-score
Oligonucleotide = GGTGGGGTGCAGCAGGGCCAGTGCTAG; value = -0.924 z-score
Oligonucleotide = TTAGGTCCCGGTTTCGGTTAGTGCTAG; value = 8.11 z-score
Oligonucleotide = TTAGATATCGGGTTTCGATGAGTGCTA; value = 6.39 z-score

Some of these lines once more (set 3):
Variant = P10G; value = 1.49
Variant = F8Y; value = -0.285
Variant = S2G; value = 0.898
Variant = P10R; value = 1.59
Variant = R5Y; value = 0.264
Variant = F8V; value = -0.324
